{"data": "Measurements from different studies", "organism": "HIV-1", "note": "Protocols differ between the studies behind these lines. ± gives the spread as reported."}
{"Compound": "COc1ccc(-n2c(SCC#N)nnc2[C@H](Cc2ccccc2)NC(=O)Cc2c(C)[nH]c3ccccc23)cc1", "assay": "HIV-1-induced cytopathicity, MTT", "test system": "MT-4, wild type", "scale": "50% protection", "EC50 [nM]": "590 ± 60"}
{"Compound": "Cc1ccc(CN2CCC(Nc3nc(Oc4c(C)cc(C#N)cc4C)c4ccccc4n3)CC2)cc1", "assay": "viral replication, luciferase reporter", "test system": "TZM-bl, NL4-3 wild type", "EC50 [nM]": "11.5 ± 4.12"}
{"Compound": "Cc1cc(Oc2c(C(F)(F)F)ccn(Cc3n[nH]c(=O)n3C)c2=O)c2cccc(Cl)c2n1", "assay": "viral cytopathicity", "test system": "MT4, wild type", "EC50 [nM]": "> 233000"}
{"Compound": "Cc1cc(C#N)cc(C)c1Oc1nc(NC2CCN(Cc3cccc(Cl)c3)CC2)nc2ccccc12", "assay": "viral replication, luciferase reporter", "test system": "TZM-bl, NL4-3 wild type", "EC50 [nM]": "25.3 ± 7.82"}
{"Compound": "CC(=O)NCCN(CC(=O)NCCN(CC(=O)NCCN(CC(=O)NCCC(N)=O)C(=O)C[C@@H](N)CCCNC(=N)N)C(=O)C[C@@H](N)Cc1ccccc1)C(=O)C[C@@H](N)Cc1ccccc1", "assay": "viral replication, item: reverse transcriptase activity", "test system": "PBMC, LAI", "EC50 [nM]": 130000}
{"Compound": "COc1ccc(-n2c(SCc3ccc(S(N)(=O)=O)cc3)nnc2[C@H](Cc2ccccc2)NC(=O)Cc2c(C)[nH]c3ccccc23)cc1", "assay": "HIV-1-induced cytopathicity, MTT", "test system": "MT-4, wild type", "scale": "50% protection", "EC50 [nM]": "2470 ± 110"}
{"Compound": "CCCCCCCCCCCCCCCC(=O)OC[C@H]1O[C@@H](n2cc(F)c(N)nc2=O)CS1", "assay": "viral replication, item: reverse transcriptase activity", "test system": "human monocyte-derived macrophages, ADA", "EC50 [nM]": 33}
{"Compound": "N#Cc1ccc(Nc2nccc(C(=O)c3c(F)cc(F)cc3F)n2)cc1", "assay": "cytoprotection", "test system": "MT4, IIIB wild type", "setting": "5 days", "EC50 [nM]": 25}
{"Compound": "Cc1cc(/C=C/C#N)cc(C)c1Oc1nc(NC2CCN(Cc3ccc(S(N)(=O)=O)cc3)CC2)nc2ncccc12", "assay": "viral replication, luciferase reporter", "test system": "TZM-bl, NL4-3 wild type", "EC50 [nM]": "6.67 ± 1.93"}
{"Compound": "Nc1ccn(C2OC(CO)C3CC=CCC32)c(=O)n1 (mixture of isomers)", "assay": "viral replication", "test system": "human PBM cells, LAI", "EC50 [nM]": "> 100000"}
{"Compound": "Cc1cc(C#N)cc(C)c1Oc1nc(NC2CCN(Cc3ccc(Br)cc3)CC2)nc2ccccc12", "assay": "viral replication, luciferase reporter", "test system": "TZM-bl, NL4-3 wild type", "EC50 [nM]": "34.4 ± 12.3"}
{"Compound": "CC(=O)OCC1OC(n2ccc(=O)[nH]c2=O)C2CC=CCC12 (mixture of isomers)", "assay": "viral replication", "test system": "human PBM cells, LAI", "EC50 [nM]": 60700}
{"Compound": "Cc1cc(C#N)cc(C)c1Oc1nc(NC2CCN(Cc3cccc(Br)c3)CC2)nc2ccccc12", "assay": "viral replication, luciferase reporter", "test system": "TZM-bl, NL4-3 wild type", "EC50 [nM]": "38.1 ± 14.5"}
{"Compound": "COc1ccc(-n2c(SCCCN3CCOCC3)nnc2[C@H](Cc2ccccc2)NC(=O)Cc2c(C)[nH]c3ccccc23)cc1", "assay": "HIV-1-induced cytopathicity, MTT", "test system": "MT-4, wild type", "scale": "50% protection", "EC50 [nM]": "590 ± 80"}
{"Compound": "Cc1cc(C#N)cc(C)c1Oc1nc(NC2CCN(Cc3ccc(S(C)(=O)=O)cc3)CC2)nc2ncccc12", "assay": "viral replication, luciferase reporter", "test system": "TZM-bl, NL4-3 wild type", "EC50 [nM]": "1.71 ± 0.41"}
{"Compound": "CC(C)(C)OC(=O)N1CCC(C(=O)N[C@@H](Cc2ccc3ccccc3c2)C(=O)O)(c2ccc3ccccc3c2)CC1", "assay": "viral replication", "test system": "pNL4-3 wild type", "EC50 [nM]": "~58000"}
{"Compound": "Cc1cc(C)cc(S(=O)(=O)c2c(C(N)=O)[nH]c3ccc(Cl)cc23)c1", "assay": "viral replication", "test system": "MT-4, IIIB", "EC50 [nM]": "4.1 ± 1.4"}
{"Compound": "COc1ccc(-n2c(SCCF)nnc2[C@H](Cc2ccccc2)NC(=O)Cc2c(C)[nH]c3ccccc23)cc1", "assay": "HIV-1-induced cytopathicity, MTT", "test system": "MT-4, wild type", "scale": "50% protection", "EC50 [nM]": "1240 ± 570"}
{"Compound": "CC(=O)NCCN(CC(=O)NCCN(CC(=O)NCCN(CC(=O)NCCC(N)=O)C(=O)C[C@@H](N)CCCCN)C(=O)C[C@@H](N)Cc1ccccc1)C(=O)C[C@@H](N)Cc1ccccc1", "assay": "viral replication, item: reverse transcriptase activity", "test system": "PBMC, LAI", "EC50 [nM]": 254000}
{"Compound": "Nc1ncnc2c1ncn2C1OC(CO)C2CC=CCC21 (mixture of isomers)", "assay": "viral replication", "test system": "human PBM cells, LAI", "EC50 [nM]": "> 100000"}
{"Compound": "COc1ccc(-n2c(SCCN(C)C)nnc2[C@H](Cc2ccccc2)NC(=O)Cc2c(C)[nH]c3ccccc23)cc1", "assay": "HIV-1-induced cytopathicity, MTT", "test system": "MT-4, wild type", "scale": "50% protection", "EC50 [nM]": "850 ± 240"}
{"Compound": "Cc1[nH]c2ccccc2c1CC(=O)N[C@@H](Cc1ccccc1)C(=O)N(C)c1ccccc1", "assay": "viral replication", "test system": "TZM-GFP, NL4-3", "EC50 [nM]": "610 ± 200"}
{"Compound": "Cc1cc(C#N)cc(C)c1Oc1nc(NC2CCN(Cc3ccc(S(C)(=O)=O)cc3)CC2)nc2ccccc12", "assay": "viral replication, luciferase reporter", "test system": "TZM-bl, NL4-3 wild type", "EC50 [nM]": "1.42 ± 0.48"}
{"Compound": "CC(=O)Nc1ccn(C2OC(COC(C)=O)C3CC=CCC32)c(=O)n1 (mixture of isomers)", "assay": "viral replication", "test system": "human PBM cells, LAI", "EC50 [nM]": "> 100000"}
{"note": "Some of these lines once more:"}
{"Compound": "Cc1cc(C#N)cc(C)c1Oc1nc(NC2CCN(Cc3ccc(S(C)(=O)=O)cc3)CC2)nc2ncccc12", "assay": "viral replication, luciferase reporter", "test system": "TZM-bl, NL4-3 wild type", "EC50 [nM]": "1.71 ± 0.41"}
{"Compound": "Cc1[nH]c2ccccc2c1CC(=O)N[C@@H](Cc1ccccc1)C(=O)N(C)c1ccccc1", "assay": "viral replication", "test system": "TZM-GFP, NL4-3", "EC50 [nM]": "610 ± 200"}
{"Compound": "CC(=O)NCCN(CC(=O)NCCN(CC(=O)NCCN(CC(=O)NCCC(N)=O)C(=O)C[C@@H](N)CCCCN)C(=O)C[C@@H](N)Cc1ccccc1)C(=O)C[C@@H](N)Cc1ccccc1", "assay": "viral replication, item: reverse transcriptase activity", "test system": "PBMC, LAI", "EC50 [nM]": 254000}
{"Compound": "Cc1cc(C#N)cc(C)c1Oc1nc(NC2CCN(Cc3ccc(S(C)(=O)=O)cc3)CC2)nc2ccccc12", "assay": "viral replication, luciferase reporter", "test system": "TZM-bl, NL4-3 wild type", "EC50 [nM]": "1.42 ± 0.48"}
